Assay results from different studies.
A part holds a random share of what one study measured.

Series 1
Target: Histone acetyltransferase KAT6A, winged helix 1, GST fusion (KAT6A, Homo sapiens, UniProt Q92794, residues 1-85)
Technique: protein binding microarray
Form: double-stranded DNA, one strand shown
Sample: in vitro
Concentration: not given
Notes: 8-mer, flanks averaged, mean of 2 arrays, mostly near background
Reference: not given
Direction: higher = stronger binding
Measurement: E-score
Target sequence (chain): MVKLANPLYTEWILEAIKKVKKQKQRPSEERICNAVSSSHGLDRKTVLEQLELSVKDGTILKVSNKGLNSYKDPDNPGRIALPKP
AGTCATCA: -0.0496
CTGTCTTC: -0.181
CAGAGTTA: -0.13
GTCTGTCA: -0.11
CCCAATCA: -0.17
AAAGTATT: -0.173
CAGACCTG: 0.0304
GTTTACGA: -0.201
CTAAAACA: -0.0868
CATTCATA: 0.0245
ACGGTAGA: 0.184
ACGATGCC: 0.0676
AGAGAACA: -0.117
AGTCCAGA: -0.32
CCGATAGG: 0.114
ACGCGTAT: 0.283
TAAAGCAA: -0.0955
GTTTCACA: -0.0903
GCTGGTGA: -0.17
GCGTCCCC: 0.145
ATTGATCC: 0.0517
GGAGGCAC: 0.0409
ATGCAGGG: -0.197
CGAAAAAC: -0.102

Series 2
Target: RNA binding protein fox-1 homolog 2, RRM domain, GST-SBP tag (RBFOX2, Homo sapiens, UniProt O43251-10, residues 100-194)
Technique: RNA Bind-n-Seq
Form: RNA
Sample: in vitro
Concentration: 365 nM
Notes: natural RNA segment, single round, ends assumed
Reference: no-protein control
Direction: higher = stronger binding
Measurement: RBNS enrichment (R)
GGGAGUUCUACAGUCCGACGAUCCUUACUAGUCUGUUUUACUGGCUGAGACACCCUAUUUGGCAUUUUCACUGCUGGCUGGUGUGAUGGGUGUAGAGUGCCCACAGAUGAGUCUAUGGAUGUCUUGGCUCUGCUGGAAUUCUCGGGUGCCAA: 0.756
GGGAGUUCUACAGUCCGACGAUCAUUUUUUUUUAAAUAUAUUUGAUGACAUAAUUUUUGUGUAGUUUAUUUAUCUUGUACAUAUGUAUUUUGAAAUCUUUUAAACCUGAAAAAUAAAUAGUCAUUUAAUGUUGUGGAAUUCUCGGGUGCCAA: 0.581
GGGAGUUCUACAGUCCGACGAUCGCCUGGGUGAUGCUUUCCUAGGAGAGCCGGUAUUUGCUUGUAAGGGAAAGAAUGGUAUUGUAGAAAAACCCAAGAAAUGACCACGUGGUCAGUUUCAUGGUGAUGGCUACUGGAAUUCUCGGGUGCCAA: 0.648
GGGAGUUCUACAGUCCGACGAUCUGCCUGUGGGACAAAGGACAGGAUGUAUGAAUUUAGGCCAAAGGUCCUAUGGUCCAUUUGCAGGGUUGGAAAGGCCCUUGCCAUCUCUUAGGCCUCCAUUUAAGCCCAUGUGGAAUUCUCGGGUGCCAA: 0.813
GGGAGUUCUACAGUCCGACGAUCUGGGGAAGAUACCCCUUUUCUGAGGAAUGAGUUUGCCUCCGUCCCCUGCCCAUGCUGGGAGCCCACGCUCACCCCCUCACCCCUCCAAGCUCACUCCCCAACCCCCAACUUGGAAUUCUCGGGUGCCAA: 0.454
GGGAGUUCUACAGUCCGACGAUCUCUCCCCUGUACAUGUACUGUAGAAAUGUGUGAUGACAAACGGACUAAUAAAGAACAUUUGGUUGGUCAGAUCCACUUUUAACCUCUGGUGCUGUACAGAAGGCAUUAAAUGGAAUUCUCGGGUGCCAA: 0.572
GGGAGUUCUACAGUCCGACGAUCCAAGAGGAUUCUGGGCGUGGCAAGCUCUACAGGUCAAGCUGUUUCCUCUAUCCUGGUAACUCCUCACUGUACUGAUUUACUGGUGCAUGCAAUUCUGUUAAAAAAUGUAUUGGAAUUCUCGGGUGCCAA: 6.52
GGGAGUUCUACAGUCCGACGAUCCCCCAAGAUCUCCAGUUUUAGAAGAGACCUGCACAUAAGAGGACUUCAUGUCAAGAUCACUACAACACCAUCUCUUCCAUUCACAAAGUUGAGUCUGUUCCUUUCAUCUAUGGAAUUCUCGGGUGCCAA: 0.361
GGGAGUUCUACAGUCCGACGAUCUGUGUAUUAAGCUUUUCAAACAAUGGAGGGGAUGGAGAGCCCUGGUGUCCUGACGGGAGCCAGGUCGGCCUGAGAGCUGUGCCGCUCCUCUGUCUUGUCAGUGGAGGUGCUGGAAUUCUCGGGUGCCAA: 0.496

Series 3
Target: RING finger protein unkempt homolog, zinc fingers 1-6, GST-SBP tag (UNK, Homo sapiens, UniProt Q9C0B0, residues 30-357)
UniProt Q9C0B0, sequence (30-357, looked up): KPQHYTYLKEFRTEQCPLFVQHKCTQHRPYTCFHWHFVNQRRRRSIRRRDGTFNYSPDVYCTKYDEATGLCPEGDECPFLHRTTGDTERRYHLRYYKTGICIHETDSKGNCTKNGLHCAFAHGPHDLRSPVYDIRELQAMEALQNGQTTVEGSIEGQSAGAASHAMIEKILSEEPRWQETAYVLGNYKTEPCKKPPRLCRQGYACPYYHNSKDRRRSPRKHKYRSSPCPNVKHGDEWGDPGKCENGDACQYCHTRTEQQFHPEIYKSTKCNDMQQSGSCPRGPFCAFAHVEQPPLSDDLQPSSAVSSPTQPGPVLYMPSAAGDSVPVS
Technique: RNA Bind-n-Seq
Form: RNA
Sample: in vitro
Concentration: not given
Notes: RNA with constant flanks, human-mouse chimeric sites, ends assumed
Reference: input RNA pool
Direction: higher = stronger binding
Measurement: bound/input enrichment
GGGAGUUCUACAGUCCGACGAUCGAUAAGAAAAGCUUGUUGGAGACCCGAUUGCAUGUCACUGGUAGAGACCUGAGGUGUCAAAUAGCUGAAACUUUCGGAUUUCAAGAAAAUUAUAUCAAGAUCGUAAUAAAUAAGAAACAGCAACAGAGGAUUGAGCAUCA: 0.28 ratio
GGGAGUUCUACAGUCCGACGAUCGUACUGCAGCAGCAGGGAAAACUGCAGGAAGCUCUGAUGCAUUAUAAAGAAGCCAUACGAAUCAGUCCUACAUUUGCUGAUGCCUACUCUAAUAUGGGAAACACUCUAAAGGAGAUGCAGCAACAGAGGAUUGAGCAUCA: 0.244 ratio
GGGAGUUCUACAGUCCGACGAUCUCUGGUCACACUCGUGUGUAUGGUGUUUGCUUUGUUGACACUUCACUGGGCAAGUUUUUCAUCGGCCAGUUUUCGGAUGACCGCCACUGUUCCAGAUUUAGGACUCUAGUGGCUCACUAUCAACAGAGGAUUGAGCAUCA: 0.193 ratio
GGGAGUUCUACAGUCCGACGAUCAAAGAGUGGAUAGAGUGUGCACACGGGAUCGGUGGGACCCGGGCGAAAAAGGAGUGCAAGAUAGAGUUCGAUGACUUCGAAGAGUGCUUGCUUCGGCAGAAAACGAUGAGGCGAAUGCAUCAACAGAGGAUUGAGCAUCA: 0.265 ratio
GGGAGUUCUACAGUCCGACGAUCCAGCGCCGAGGCCGCGGUUUCCCCCUGGGCCUCCCCAGCAGCAGCCAUGGGCAUCAAAUUUUUAGAAGUUAUUAAACCUUUCUGUGCAGUUCUACCAGAAAUUCAGAAACCGGAAAGGAACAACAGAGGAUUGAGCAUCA: 4.14 ratio
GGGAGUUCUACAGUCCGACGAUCUUACCCGAGAACGAGGAUGAGCUGGAGAGCACCAACAGGCGCUACACCAAGAGAGACUGCAGCACUUUCCUCAGAACUAGUGAGACGGGCAUCGUGGACCAGGUCAUGGUAACUCUCAACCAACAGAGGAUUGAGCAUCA: 0.13 ratio
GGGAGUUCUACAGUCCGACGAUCAGAUAUUAAGUAUUUUGAAAAAACUCGAACAGAUUUGACAAGGGUAGCCAGCUUGGAGUCUAGCAACUUGCCAAUGUGUUUACCAAUCUGGGGGCUUUGUUUUUCUUUCUUCUUUCAAAUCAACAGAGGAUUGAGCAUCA: 0.278 ratio
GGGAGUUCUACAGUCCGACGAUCAAAGUGGACUAUGGUGAGUACAUGGAUAAAAAUAAUGUGAGGCGGCAAGCAACAACAAUCAUAGCUGAUAACAUUAUAUUUCUGAGUGACCAGACAAAAGAAAAGGCAUAGAACGGAUGACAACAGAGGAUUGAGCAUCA: 1.52 ratio
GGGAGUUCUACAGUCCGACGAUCGCCACCAGAUCCCAGAAACAUGACCCUUGCUGCCUACAAGGAGAAGAUGAAGGAGCUCCCGCUGGUGUCCUUGUUCUGCUCCUGCUUCCUGGCCGAUCCCCUGAAUAAGUCGUCCUACAACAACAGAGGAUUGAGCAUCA: 0.197 ratio
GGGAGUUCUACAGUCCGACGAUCUCCUGGUCGUGUCCCAGUGCAGGACGAUGUGAACAAAAACUCAAAGCGGACCCUCUAUUGUAGUUCUUGAUUCUCGAAAUGUGCUAUUAUUGUUUGUAAAAAAGGAAUUUUUUUUAAAGACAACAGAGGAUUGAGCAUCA: 0.391 ratio

Series 4
Target: Interferon regulatory factor 3, full length, phosphomimetic (IRF3, Homo sapiens, UniProt Q14653, residues 1-427, S386D/S396D/S398D/S402D/T404D/S405D)
UniProt Q14653, sequence (whole entry, unmodified, looked up): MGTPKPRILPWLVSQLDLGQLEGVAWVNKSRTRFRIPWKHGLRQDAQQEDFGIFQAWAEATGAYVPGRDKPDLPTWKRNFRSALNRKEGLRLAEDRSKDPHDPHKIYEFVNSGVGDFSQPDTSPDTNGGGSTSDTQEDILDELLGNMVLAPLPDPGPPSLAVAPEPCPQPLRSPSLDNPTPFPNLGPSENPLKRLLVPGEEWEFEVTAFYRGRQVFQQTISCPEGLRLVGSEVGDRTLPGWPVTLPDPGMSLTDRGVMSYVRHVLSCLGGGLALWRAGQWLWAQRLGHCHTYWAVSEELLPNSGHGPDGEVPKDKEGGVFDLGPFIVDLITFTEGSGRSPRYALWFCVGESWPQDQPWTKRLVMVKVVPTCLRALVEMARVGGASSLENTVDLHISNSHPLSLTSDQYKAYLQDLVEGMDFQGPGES
Technique: protein-binding microarray
Form: double-stranded DNA, one strand shown
Sample: in vitro
Concentration: 2540 nM top
Notes: 60-bp whole probe
Together with: salmon DNA 0.4 mg/ml
Reference: random background probes
Direction: higher = stronger binding
Measurement: fitted relative affinity
Constant ends, left off below: GCCTAGCAC … GTCTTGATTCGCTTGACGCTGCTG
TTCGGTTTCCTTCTCCTTTAGTGCTAG: 10.3 z-score
ACTCATTTTCGTTTTGTGTCGTGCTAG: 4.07 z-score
CTCGCTATGTTGTCCAGGCTGGTGCTA: -0.497 z-score
TTAGGTATCGGAATGGGTTAGTGCTAG: 3.1 z-score
TTAGATATCAGTATAGATTAGTGCTAG: 0.665 z-score
GGTATTCGGAACTTTTAGCTGTGCTAG: 0.929 z-score
TTAGATTCGAGTTTCGATTAGTGCTAG: 3.27 z-score
GACGATTTCGGGACTGTAGACGTGCTA: 1.87 z-score
AATTTTTACTTTCTGAATGCGTGCTAG: 4.08 z-score
GACGGACCGGGGACTGGGGACGTGCTA: -0.989 z-score
GACGGACTGCTACAGCTGACGTGCTAG: -0.622 z-score
TTAGGTCTCTTTATCCTTTAGTGCTAG: 1.29 z-score
CTTTTATGCTCTTTCTACATGTGCTAG: 3.56 z-score
ATTTATTTACTCTCTACATGGGTGCTA: 1.06 z-score
TTAGAACTGGGGTTTCGATGAGTGCTA: 0.119 z-score
CATTCTCTGCTTCTGTATGGGTGCTAG: 4.66 z-score
TTACGTTTCCTTATCCTTTAGTGCTAG: 6.57 z-score
GACGAGATCAGTCTCGAGACGTGCTAG: 0.528 z-score
TCAGTTTCACTTTCCAAACTGTGCTAG: 10.8 z-score
TTAGGTTTCGACTTTCGGTAAGTGCTA: 3.78 z-score
GAGGGACTGGGACTGGGGACGTGCTAG: -1.15 z-score
TGTTTTTGCTTTCTTTTTGCGTGCTAG: 3.27 z-score
TTACGACTGGACTATCGGTTAGTGCTA: -0.209 z-score
GACGGTCTCCTTCTCCTGTCGTGCTAG: 4.6 z-score
ACTTCTCCATTTTTCTAGTCGTGCTAG: 2.38 z-score

A few entries again (series 4):
ACTCATTTTCGTTTTGTGTCGTGCTAG: 4.07 z-score
CTCGCTATGTTGTCCAGGCTGGTGCTA: -0.497 z-score
TTAGGTATCGGAATGGGTTAGTGCTAG: 3.1 z-score
TTAGATATCAGTATAGATTAGTGCTAG: 0.665 z-score
GGTATTCGGAACTTTTAGCTGTGCTAG: 0.929 z-score
TTAGATTCGAGTTTCGATTAGTGCTAG: 3.27 z-score
